# Assay results of several laboratories.
# A part holds a random share of what one study measured.

# Set 1
# Target: Histone acetyltransferase KAT6A, winged helix 1, GST fusion (KAT6A, Homo sapiens, UniProt Q92794, residues 1-85)
# Technique: protein binding microarray
# Form: double-stranded DNA, one strand shown
# Sample: in vitro
# Concentration: not given
# Notes: 8-mer, flanks averaged, mean of 2 arrays, mostly near background
# Reference: not given
# Direction: higher = stronger binding
# Target sequence (chain): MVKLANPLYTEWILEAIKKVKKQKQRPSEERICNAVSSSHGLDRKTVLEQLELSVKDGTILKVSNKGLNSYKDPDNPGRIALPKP
Oligonucleotide,E-score
CTGCCGTC,0.324
AACTGGCA,-0.173
AGTTGCAC,-0.202
GAGCACAA,-0.231
ACGTAAAG,-0.0387

# Set 2
# Target: Prothrombin, mature alpha-thrombin (F2, Homo sapiens, UniProt P00734)
# Technique: aptamer microarray, sandwich
# Form: DNA with 2'F-ANA
# Sample: in vitro
# Concentration: 200 nM
# Notes: whole 15-mer aptamer, many near background
# With: Cy3 exosite-II aptamer, 400 nM
# Direction: higher = stronger binding
Oligonucleotide,mean fluorescence intensity
GGTTGGTGTGGTTGG (2'F-ANA at 1 2 4 9 10 11 12),68 a.u.
GGTTGGTGTGGTTGG (2'F-ANA at 1 2 4 5 6 9 11 13),62.2 a.u.
GGTTGGTGTGGTTGG (2'F-ANA at 4 6 7 8 14 15),102 a.u.

# Set 3
# Target: PABPC1L2, full length, GST fusion (mouse, UniProt A0ABA7IW68)
# Technique: RNAcompete
# Form: RNA
# Sample: in vitro
# Concentration: 20 nM
# Notes: 7-mer, probes averaged, single round
# Reference: mean of 7-mers
# Direction: higher = stronger binding
# Construct (chain): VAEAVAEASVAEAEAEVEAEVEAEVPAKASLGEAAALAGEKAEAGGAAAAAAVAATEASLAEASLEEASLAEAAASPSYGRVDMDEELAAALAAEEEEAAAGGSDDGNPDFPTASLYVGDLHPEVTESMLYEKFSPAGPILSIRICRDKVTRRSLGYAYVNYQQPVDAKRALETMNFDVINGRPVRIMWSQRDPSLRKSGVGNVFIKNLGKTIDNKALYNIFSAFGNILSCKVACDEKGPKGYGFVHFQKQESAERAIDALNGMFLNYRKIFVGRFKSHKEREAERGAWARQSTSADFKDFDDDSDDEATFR
Oligonucleotide,7-mer Z-score
ACAAUCG,0.14
CUGCGUC,-0.365
CAAUUUU,-0.108

# Further values, each from its own experiment
Molecule,target,assay,test system,setting,scale,measurement,result
"PhoQ, residues 284 288 289 292 302 303 TTCLQL","PhoP, residues 12 14 15 18 19 GQALL (Escherichia coli, UniProt P23836)","Sort-seq, refers to: YFP reporter",E. coli,"PhoQ-PhoP variant library, with: 10 µM Mg2+","reference: high Mg2+ state, higher = stronger signaling",fold induction,9.12
